# Results collected from several papers.
# Compare with care: the assays were run in different laboratories. Several values in a cell are separate wells, animals, samples, runs or records. ± marks the error that the study gave.
Structure (SMILES),target or system,assay,system,conditions,scale,quantity,result
O=c1[nH]nc(OCCCc2ccc(Cl)cc2)c(NCc2cccnc2)c1Br,HEK-293T,"RNA-seq GSEA, measured: Hallmark cholesterol homeostasis",,concentration not given,direction not given,normalized enrichment score,1.04
Cn1c(Nc2nc3ccc(C(F)(F)F)cc3s2)nc2cc(C(=O)NCCOCCO)ccc21,SH-SY5Y,"RNA-seq, measured: SPRY1 mRNA",,"5 µM, 5 h",baseline: untreated cells,fold change,3.34
C/C(O)=C(\C#N)C(=O)Nc1ccc(C(F)(F)F)cc1,THP-1,pyroptotic LDH release,,"2 µM, 40 min, with: LPS then nigericin",,inhibition,31.5%
CC(C)(O)c1coc(S(=O)(=O)NC(=O)Nc2c3c(cc4c2CCC4)CCC3)c1,"THP-1 wild type, LPS-primed",inhibitor,,"25 µM, 2 h, with: nigericin 6.25 µM",,LDH release,16% and 20.1% and 15.1%
C[C@@H]1CC[C@H]2C(C)(C)[C@H]3C[C@@]12CC[C@@]3(C)O,THP-1,pyroptotic LDH release,,"2 µM, 40 min, with: LPS then nigericin",,inhibition,28.7%
COc1cnc2cccc(N3CCc4c(cc(Cn5ccnc5C)cc4-c4cn(C)nc4C(F)(F)F)C3=O)c2c1,NOMO-1,"cell growth, inhibitor",,120 h,,EC50,0.604 µM
CC1(C)CCC(C)(C)c2cc(NC(=O)c3ccc(C(=O)O)cc3)ccc21,THP-1,pyroptotic LDH release,,"2 µM, 40 min, with: LPS then nigericin",,inhibition,52%
C[C@H](NC(=O)C(C)(F)F)[C@H](Oc1ccc2c(cnn2-c2cccc(C(=O)N[C@@H]3CCOC3)c2)c1)c1ccc2c(c1)OCCO2,HEK293T ATF4-FLuc reporter,"ATF4 reporter gene, activator, luciferase reporter",,,,EC50,2.58 µM
O=C(/C=C/C=C/C=C/C1CCCCC1)NC1=C[C@@](O)(/C=C/C=C/C=C/C(=O)NC2=C(O)CCC2=O)[C@@H]2O[C@@H]2C1=O,HCC1806,"cell growth, CellTiter-Glo",,78 h,,GI50,13.7 µM
O=C(O)CCc1ccc(O)c(O)c1,Caco-2/THP-1 co-culture,TEER,,"concentration not given, with: LPS 1000 ng/mL",baseline: control,transepithelial electrical resistance,85.7 ± 5.8%
Clc1ncnc2nc[nH]c12,THP-1,pyroptotic LDH release,,"2 µM, 40 min, with: LPS then nigericin",,inhibition,20.3%
Cn1cc(-c2ccc(-c3cncc(Cl)c3N3CCC4(CCNC4=O)CC3)cc2)cn1,COLO 205,"gene expression, microarray, measured: NDUFA4L2 mRNA",,"concentration not given, 6 h",baseline: untreated cells,log2 fold change,3.28
Cc1cc(O)c2c(c1)C(=O)c1cccc(O)c1C2=O,HK-2 co-cultured with HepaRG,MTT,,"66.67 µM, 48 h",baseline: untreated control,viability,56.9 ± 16.7%
CON=C(C(=O)NC1C(=O)N2C(C(=O)OCOC(=O)C(C)(C)C)=C(C)CSC12)c1csc(N)n1 (stereo not shown),THP-1,pyroptotic LDH release,,"2 µM, 40 min, with: LPS then nigericin",,inhibition,0.0765%
CCN(C)C(=O)c1ccc2c(c1)NC(=O)/C2=C(/Nc1ccc(CN2CCCCC2)cc1)c1ccccc1,HEK293T ATF4-FLuc reporter,"ATF4 reporter gene, activator, luciferase reporter",,,,EC50,4.11 µM
CCn1cc(-c2cc(Cn3ccoc3=N)cc3c2CCN([C@@H](C)c2cc(OC)ccn2)C3=O)c(C(F)(F)F)n1,COV644,cell growth,,120 h,,EC50,> 30 µM
CCOc1cc2ncc(C#N)c(Nc3ccc(OCc4ccccn4)c(Cl)c3)c2cc1NC(=O)/C=C/[C@H]1CCCN1C,HEK293T ATF4-FLuc reporter,"ATF4 reporter gene, activator, luciferase reporter",,,,EC50,> 9.96 µM
Cc1cc(O)c2c(c1)C(=O)c1cc(O)cc(O)c1C2=O,HK-2 co-cultured with HepaRG,MTT,,"133.33 µM, 24 h",baseline: untreated control,viability,32.1 ± 6.23%
CN(C)C/C=C/C(=O)Nc1cc2c(Nc3ccc(F)c(Cl)c3)ncnc2cc1C#C[C@@H]1[C@H]2COC[C@@H]12,HEK293T ATF4-FLuc reporter,"ATF4 reporter gene, activator, luciferase reporter",,,,EC50,1.67 µM
O=C(c1ccc(O)cc1)c1ccc(O)cc1,THP-1,pyroptotic LDH release,,"2 µM, 40 min, with: LPS then nigericin",,inhibition,-5.29%
CCn1cc(-c2cc(Cn3ccnc3)cc3c2CCN([C@H](c2cc(OC)ccn2)C2CC2)C3=O)c(C(F)(F)F)n1,JHUEM7,cell growth,,120 h,,EC50,3.33 µM
CC(C)[C@H](NC(=O)[C@@H](NC(=O)CCCc1cn(CC(O)CN2CCN(CC(=O)O)CCN(CC(=O)O)CCN(CC(=O)O)CC2)nn1)[C@@H](C)O)C(=O)N[C@@H](CCCNC(=N)N)C(=O)N[C@H](C(=O)N[C@@H](CO)C(=O)N[C@@H](C)C(=O)N[C@@H](CC(=O)O)C(=O)O)[C@@H](C)O (stereo partly shown),,,"healthy male humans, plasma","intravenous bolus, 0.08 mmol/kg",,terminal half-life,2.69 ± 0.19 h

# Repeated from above:
Structure (SMILES),target or system,assay,system,conditions,scale,quantity,result
O=C(/C=C/C=C/C=C/C1CCCCC1)NC1=C[C@@](O)(/C=C/C=C/C=C/C(=O)NC2=C(O)CCC2=O)[C@@H]2O[C@@H]2C1=O,HCC1806,"cell growth, CellTiter-Glo",,78 h,,GI50,13.7 µM
CCN(C)C(=O)c1ccc2c(c1)NC(=O)/C2=C(/Nc1ccc(CN2CCCCC2)cc1)c1ccccc1,HEK293T ATF4-FLuc reporter,"ATF4 reporter gene, activator, luciferase reporter",,,,EC50,4.11 µM
O=c1[nH]nc(OCCCc2ccc(Cl)cc2)c(NCc2cccnc2)c1Br,HEK-293T,"RNA-seq GSEA, measured: Hallmark cholesterol homeostasis",,concentration not given,direction not given,normalized enrichment score,1.04
